Assay results pooled from the literature.
A part holds a random share of what one study measured. Positions count from the first letter of the parent shown.

Sample 1
Target: UBE2E3 UBC core domain (UniProt Q969T4)
Chain of UniProt Q969T4 (whole entry, looked up): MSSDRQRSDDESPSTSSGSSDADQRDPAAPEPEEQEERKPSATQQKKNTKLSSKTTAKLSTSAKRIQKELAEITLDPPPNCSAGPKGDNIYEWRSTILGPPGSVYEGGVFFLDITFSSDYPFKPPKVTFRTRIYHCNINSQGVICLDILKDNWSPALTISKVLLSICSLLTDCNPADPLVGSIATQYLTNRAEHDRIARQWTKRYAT
Technique: yeast two-hybrid
Sample: yeast
Notes: mostly zero background
Baseline: not given
Direction: higher = stronger interaction
Quantity: lacZ reporter activity
B1: RNF166 RING domain (UniProt Q96A37); chain GDSGLEAQYTCPICLEVYHRPVAIGSCGHTFCGECLQPCLQVPSPLCPLCRLPFDPKKVDK
B2: RNF187 RING domain (UniProt Q5TA31); chain ALPAGPAEAACALCQRAPREPVRADCGHRFCRACVVRFWAEEDGPFPCPECADDCWQRAVEP
B3: RNF183 RING domain (UniProt Q96D59); chain EQQGRELEAECPVCWNPFNNTFHTPKMLDCCHSFCVECLAHLSLVTPARRRLLCPLCRQPTVLASGQP
B4: ANAPC11 RING domain (UniProt Q9NYG5); chain GICRMAFNGCCPDCKVPGDDCPLVWGQCSHCFHMHCILKWLHAQQVQQHCPMCRQEWKFKE
B5: DEF8 RING domain (UniProt Q6ZN54); chain AGRLGCSLTEIHTLFAKHIKLDCERCQAKGFVCELCREGDVLFPFDSHTSVCADCSAVFHRDCYYDNSTTCPKCARLSLRK
B6: RNF31 RING domain (UniProt Q96EP0); chain AFLRRLLAQECAVCGWALPHNRMQALTSCECTICPDCFRQHFTIALKEKHITDMVCPACGRPDLTDDTQLL
B7: TRIM54 RING domain (UniProt Q9BYV2); chain SMDNLEKQLICPICLEMFSKPVVILPCQHNLCRKCANDVFQASNPLWQSRGSTTVSSGGRFRCPSCRHEVVLDRHGV
B8: MKRN2 RING domain (UniProt Q9H000); chain FAFQASQDKVCSICMEVILEKASASERRFGILSNCNHTYCLSCIRQWRCAKQFENPIIKSCPECRVISEFVIPSV
B9: TRIM22 RING domain (UniProt Q8IYM9); chain VKVDIEKEVTCPICLELLTEPLSLDCGHSFCQACITAKIKESVIISRGESSCPVCQTRFQPGNLRP
B1 (RNF166 RING domain): 0
B2 (RNF187 RING domain): 0
B3 (RNF183 RING domain): 0
YPEEVDDDLICHICLQALLDPLDTPCGHTYCTLCLTNFLVEKDFCPMDRKPLVLQHCKK (LNX1 RING domain (UniProt Q8TBB1)): 0
B4 (ANAPC11 RING domain): 0
QVQSRTKIEECVVCSDKKAAVLFQPCGHMCACENCANLMKKCVQCRAVVERRVPFI (MIB1 RING domain (UniProt Q86YT6)): 0
B5 (DEF8 RING domain): 0
B6 (RNF31 RING domain): 0
B7 (TRIM54 RING domain): 0
B8 (MKRN2 RING domain): 0
PEELAVNNDDCAICWDSMQAARKLPCGHLFHNSCLRSWLEQDTSCPTCRMSLNIADNNR (AMFR RING domain (UniProt Q9UKV5)): 0
B9 (TRIM22 RING domain): 0

Sample 2
Target: CREB3L4, bZIP domain (human)
Technique: DHFR protein complementation
Sample: yeast
Notes: single substitutions, most at no-binding floor
Baseline: wild-type JUN-FOS pair
Direction: higher = stronger binding
Quantity: binding fitness
Starting sequence: JUN, bZIP domain (human); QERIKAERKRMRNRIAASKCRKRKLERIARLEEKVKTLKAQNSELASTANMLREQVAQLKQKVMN; partner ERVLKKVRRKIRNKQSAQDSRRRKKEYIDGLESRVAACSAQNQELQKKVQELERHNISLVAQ
Q55P: -1.48 natural log
E33W: -1.5 natural log
L59N: -1.51 natural log
K36F: -1.54 natural log
A29E: -1.32 natural log
V35G: -1.51 natural log
T37D: -1.55 natural log
K36R: -1.32 natural log
E44C: -1.55 natural log
I28P: -1.48 natural log
A46R: -1.43 natural log
M51W: -1.5 natural log
K36S: -1.36 natural log
R30A: -1.4 natural log
L31W: -1.46 natural log

Sample 3
Target: Interferon regulatory factor 7, full length, phosphomimetic (IRF7, Homo sapiens, UniProt Q92985, residues 1-503, S101K/S471D/S472D/S475D/S476D/S477D/S483D/S484D/S487D)
Chain of UniProt Q92985 (whole entry, unmodified, looked up): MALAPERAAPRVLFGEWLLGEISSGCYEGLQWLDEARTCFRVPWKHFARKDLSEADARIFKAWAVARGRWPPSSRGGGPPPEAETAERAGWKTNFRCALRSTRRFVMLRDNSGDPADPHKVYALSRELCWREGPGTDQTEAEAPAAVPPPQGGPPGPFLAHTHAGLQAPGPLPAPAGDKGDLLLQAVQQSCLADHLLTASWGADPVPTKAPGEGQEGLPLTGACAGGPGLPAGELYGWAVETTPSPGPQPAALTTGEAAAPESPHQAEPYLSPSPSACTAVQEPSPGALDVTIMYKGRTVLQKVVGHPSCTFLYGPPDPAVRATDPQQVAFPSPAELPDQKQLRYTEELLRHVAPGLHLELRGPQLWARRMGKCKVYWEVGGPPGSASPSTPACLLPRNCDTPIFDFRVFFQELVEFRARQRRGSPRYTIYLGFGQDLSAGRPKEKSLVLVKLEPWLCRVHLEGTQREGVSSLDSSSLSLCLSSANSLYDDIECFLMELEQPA
Technique: protein-binding microarray
Form: double-stranded DNA, one strand shown
Sample: in vitro
Concentration: 250 nM
Notes: 60-bp whole probe
Together with: salmon DNA 0.4 mg/ml
Baseline: random background probes
Direction: higher = stronger binding
Quantity: log fluorescence
Constant ends, left off below: GCCTAGCAC … GTCTTGATTCGCTTGACGCTGCTG
GACGGTCTCGGACTGGGGCCGTGCTAG: 0.0162 z-score
GCCGGTTTCCTTTTCCTGACGTGCTAG: 7.55 z-score
GAGGAACTGAGACTGGAGACGTGCTAG: -0.577 z-score
GACGGTTTGCTTTCCCTGACGTGCTAG: 0.76 z-score
TCATTTTTTTTTCTACTACTGTGCTAG: 1.17 z-score
TTAGATTTCAGTATCGATTGGTGCTAG: 1.29 z-score
TGTTACTAGGGTTACATAATGTGCTAG: 0.517 z-score
TTAGGTATCGCTATCGGTTAGTGCTAG: 0.873 z-score
TCAACACTAGTTTTTACACTGTGCTAG: 0.168 z-score
GAGGGTATCCTTCTCCTGACGTGCTAG: -0.154 z-score
GCTGCCCTCACCATCATCCTGTGCTAG: -0.344 z-score
GCCGGACTGGGGTATCGGGACGTGCTA: -0.674 z-score
TTAGGTTTCAGTATCGATTAGTGCTAG: 3.39 z-score
TCAGATCTGCCGTCCCACTCAGTGCTA: -0.0746 z-score
GTCGGTATCCTTATCCTGACGTGCTAG: 0.733 z-score
GGCGGTATCGACACTGGGGACGTGCTA: -0.388 z-score
GACGATATCGGGACTGGAGCCGTGCTA: -0.493 z-score
TCAGATATCGGGTTTCGATTAGTGCTA: 6.82 z-score
TCATCTTTCACTGCTCCAACTGTGCTA: 0.767 z-score
GACGGTCTCCTTAACCTGACGTGCTAG: -0.027 z-score

Sample 4
Target: CCNE1, cyclin fold, Cln2 fusion (human)
Technique: yeast growth competition, sequencing
Sample: yeast
Notes: weak parent motif
Baseline: not given
Direction: higher = stronger binding
Quantity: normalised enrichment score
Starting sequence: PKN2 docking peptide (human); VSAVQKLDFSDTM
V1Q: 1.07
F9K: 0.263
V1Y: 0.904
A3P: 0.945
S2I: 0.304
S10N: -0.289
L7E: 0.138
D11S: 0.316
A3D: -0.451
D8A: 0.541

Sample 5
Target: ABI1, truncated, D143A, DHFR fusion (Arabidopsis thaliana)
Technique: DHFR PCA, deep sequencing
Sample: yeast
Notes: methotrexate growth selection, single substitutions
Together with: (+)-ABA 0.0091 µM
Baseline: wild-type fitted maximum
Direction: higher = stronger binding
Quantity: relative binding score
Starting sequence: PYL1, truncated, DHFR fusion (Arabidopsis thaliana); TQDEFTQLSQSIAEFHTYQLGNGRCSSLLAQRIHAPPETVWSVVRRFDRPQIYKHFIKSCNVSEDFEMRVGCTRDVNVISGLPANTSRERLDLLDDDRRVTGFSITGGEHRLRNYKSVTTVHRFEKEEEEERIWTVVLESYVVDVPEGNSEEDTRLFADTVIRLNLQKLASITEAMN; partner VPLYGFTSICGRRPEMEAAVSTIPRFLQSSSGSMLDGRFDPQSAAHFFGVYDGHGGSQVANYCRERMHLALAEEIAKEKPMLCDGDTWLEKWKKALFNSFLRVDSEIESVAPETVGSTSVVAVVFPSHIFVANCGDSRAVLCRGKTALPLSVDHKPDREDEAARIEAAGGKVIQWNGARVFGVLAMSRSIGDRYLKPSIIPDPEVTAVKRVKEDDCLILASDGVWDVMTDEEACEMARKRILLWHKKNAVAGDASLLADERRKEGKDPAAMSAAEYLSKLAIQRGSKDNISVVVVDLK
L94W: 0.667%
N77F: 9.18%
K126W: 10.1%
K116T: 10.6%
D48T: -7.29%
T154H: -2.8%
V62L: 16.2%
E64M: -6.99%
A175V: 4.07%
V142Y: -6.49%
A35V: 2.72%
Y115K: 11.7%

Sample 6
Target: Histone acetyltransferase KAT6A, winged helix 1, GST fusion (KAT6A, Homo sapiens, UniProt Q92794, residues 1-85)
Technique: protein binding microarray
Form: double-stranded DNA, one strand shown
Sample: in vitro
Concentration: not given
Notes: 8-mer, flanks averaged, mean of 2 arrays, mostly near background
Baseline: not given
Direction: higher = stronger binding
Quantity: E-score
Construct (chain): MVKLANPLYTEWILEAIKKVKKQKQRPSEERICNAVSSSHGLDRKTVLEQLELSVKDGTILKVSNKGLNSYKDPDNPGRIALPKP
TGTCATAA: -0.227
CTTCCCAA: -0.274
GCCAGCCA: -0.077
TCGTCGAA: -0.206
GATTATAA: -0.0185
ATGGAGGA: -0.0965
CTCAGGAG: -0.0564
CAGGACTG: -0.114
AGAATGAC: -0.125
GGCACACA: -0.152
AAATATAC: -0.141
TAAACCAA: -0.112
AAGCCGGC: 0.313
CTGTCGTA: -0.113
CGAGCCAA: -0.21
AGAGGAAA: -0.159
CCTGAGGC: 0.0191
ACAATCAT: -0.171
ATCCTAAT: -0.098
TCTGAGAA: -0.184
GTACTTTA: -0.0941

Sample 7
Target: RING finger protein unkempt homolog, zinc fingers 1-6, GST-SBP tag (UNK, Homo sapiens, UniProt Q9C0B0, residues 30-357)
Chain of UniProt Q9C0B0 (30-357, looked up): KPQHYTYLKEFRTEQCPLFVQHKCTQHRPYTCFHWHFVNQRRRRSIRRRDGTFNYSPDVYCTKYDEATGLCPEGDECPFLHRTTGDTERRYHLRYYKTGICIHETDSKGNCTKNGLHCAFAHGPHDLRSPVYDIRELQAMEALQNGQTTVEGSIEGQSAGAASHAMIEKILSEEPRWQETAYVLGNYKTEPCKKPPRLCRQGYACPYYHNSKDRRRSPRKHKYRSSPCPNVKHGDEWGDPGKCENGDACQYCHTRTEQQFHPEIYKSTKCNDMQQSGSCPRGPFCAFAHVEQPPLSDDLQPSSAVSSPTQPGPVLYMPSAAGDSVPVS
Technique: RNA Bind-n-Seq
Form: RNA
Sample: in vitro
Concentration: not given
Notes: RNA with constant flanks, human and mouse sites, ends assumed
Baseline: input RNA pool
Direction: higher = stronger binding
Quantity: bound/input enrichment
Constant ends, left off below: GGGAGUUCUACAGUCCGACGAUC … CAACAGAGGAUUGAGCAUCA
AGGCUCAUCCAGCCAUAUAUCCAUAACUACUCCUGGCUGCUCUUUGCUGCCCUGGCUCUCUAUAGCGCCCACCUGGCCAGUGCAGAGGAUGUGGAUGGGGAGAAGCUGGACCCCCAGACG: 0.359 ratio
UUUGCUUUUCAUCUUUUAUAGAUGUAAUCUGAUUUUCAAAAAUCAUUAACACUUUUUAAUUAGUAUCGACUAAGACUUUUUCCCCCUGGAAUCGAGGCUGUGUGUCCGUCAUCCCAGCCC: 4.63 ratio
CCCGUGUCGAGAGUUUAUUCUAGGGACAGGAAUCAAAAAUGCGGUGCGUCUUUCUACGUGAAUAGGAUUUUGUGGCUGGCCAGAUACACUGCAUCAUCUUUUUCAUCAUUUUUAGUUCAA: 3.25 ratio
CAGAUUUUGAAAACGUUGAUGGAAGAAACAACACGUCAGCAGAGCAUGAUACGGGAGCUCAUAGAGACCAACCAGCAACUGAAAAGUGAACUUCAGCUAGAACAGAACCGAGCGGCACAC: 0.423 ratio
AUCGCCAAGACUCACGAAGAUAUUGAAGCACAGAUUCGAGAAAUUCAAGGCAAGAAGGCAGCUCUUGAUGAAGCUCAAGGAGUGGGCCUCGAUUCUACAGGUUAUUAUGACCAGGAAAUU: 0.218 ratio
UCCUAUGUGGACGUUGGCACUGGGAAGGUCACUCUGGAAUAUAGACCCGUGAUCGACAAAACUUUGAACGAGGCUGACUGUGCCACCGUCCCGCCAGCCAUUCGCUCCUACUGAUGAGAC: 0.0764 ratio
ACAACUCUGGAUAGAGCUGCGUGUUUGCCACCUGGAGACCAUAAUGCAUUAUAUGUAAAUAGCUUCCCACUUCUGGACCCAUCUGAUGCACCUUUUCCCUCACUCGAUUCCCCGGGAAAA: 0.18 ratio
UCUCCAUCUUGUUACAUUCCACUGCGGAGACUACAGGAUUUGGCCUCCAUGAUCAAUGUAGAGUAUUUAAAUGGGUCUGCUGAUGGAUCAGAAUCCUUUCAAGACCCUGAAAAAAGUGAU: 0.417 ratio
CAUGGAAAAAGAUAAACACAGUCAUUUCUACAACCAAAAAAGUGACUUCAGAAUUGAGCAUAGUAUGCUAGAAGAAUUGGAAAAUAAAUUGAUUCACAGCAGGAAAACAGAAAGAGCAAA: 0.456 ratio
CCCACCACAAAAAUUCAGAUCAGGUUGGCAGAUGGAAGUCGUCUCGUACAGAGAUUCAAUAGCACACACCGGAUUCUGGAUGUACGAGACUUUAUAGUACGGUCACGUCCUGAAUUUGCG: 0.262 ratio
ACAAAACUACAUGAUACGUUUGGAUUUGUGGAUGAAGAUGUAUUCUUUCAGCUUAGUGCUGUCAAAGGGAAAACCCCCCAAGUAGGUGACAGAGUAUUGGUUGAAGCUACUUAUAAUCCU: 0.549 ratio

For quick reference, copied from above (sample 2):
T37D: -1.55 natural log
M51W: -1.5 natural log
V35G: -1.51 natural log
L59N: -1.51 natural log
Q55P: -1.48 natural log
E44C: -1.55 natural log
R30A: -1.4 natural log
I28P: -1.48 natural log
L31W: -1.46 natural log
K36S: -1.36 natural log
E33W: -1.5 natural log
A46R: -1.43 natural log
K36F: -1.54 natural log
A29E: -1.32 natural log
K36R: -1.32 natural log
